Measured values gathered from unrelated publications.
± gives the spread as reported. Values after ≈ are worked out from the molar mass of the structure shown.

For `CO[C@H]1[C@H](O[C@H]([C@H]2O[C@@H](n3ccc(=O)[nH]c3=O)[C@H](O)[C@@H]2O)[C@H](NCCCNC(=O)[C@@H](NC(=O)[C@@H](NC(=O)N[C@H](C(=O)O)C(C)C)[C@@H]2CCN=C(N)N2)[C@@H](OC(=O)CCCCCCCCCCCCN(O)C(=N)N)C(C)C)C(=O)O)O[C@H](CN)[C@H]1O`, the MIC50 was over 35 µg/mL (Cryptococcus gattii; alamar blue; C17).
With `COc1ccc2c(c[n+](C)c3c4cc5c(cc4ccc23)OCO5)c1OC` the IC50 was 0.11 µM (Bovine alphaherpesvirus 1; viral replication; MDBK).
With `CC1(C)SC2C(NC(=O)C(NC(=O)C3=C(O)C(Cc4ccc(F)cc4)NC3=O)c3ccccc3)C(=O)N2C1C(=O)O` (stereo not shown) the MIC was 12.5 µg/mL (Escherichia coli; broth microdilution; Keio mutant JW5086-3; 18 h, ferrienterobactin permease gene).
`C=C(CN(C(=O)c1c(C(F)F)nn(C)c1F)C1CC1)c1ccc(Cl)cc1Cl` has a colony diameter of 5 mm (Ustilaginoidea virens; 1.56 mg/L).
For `COc1cnc(OC)n2nc(NS(=O)(=O)c3c(OCC(F)F)cccc3C(F)(F)F)nc12`, “root length inhibition” read 100% (Arabidopsis thaliana; Col-0, seed germination, dark; 50 µg/mL, 7 days, 22 °C).
For `O=[N+]([O-])c1ccc(C2=[N+]([O-])c3ccccc3N3CCN=C23)cc1`, the MIC90 was at most 0.06 µg/mL (Fusobacterium nucleatum).
`O=[N+]([O-])c1ccc(NCCSSc2ccccn2)c2nonc12` has a viability reduction of 17.3% (Schistosoma mansoni; microscopic viability scoring; newly transformed schistosomula; 10 µM, 72 h, prescreen).
With `NC(=O)c1ncn([C@@H]2O[C@H](CO)[C@@H](O)[C@H]2O)n1` the EC50 was 61 µM (Dengue virus; viral replication; BHK-21, DENV3; 120 h).
`Cn1c(=O)ccc2ccc(F)c(CCNC[C@H]3CN(c4cnc5c(n4)NC(=O)CO5)C(=O)O3)c21` has an MIC50 of 0.06 µg/mL (≈ 0.128 µM) (Achromobacter spp.).
For `CS(=O)(=O)CCCn1c(Cn2c(=O)n(CC(F)(F)F)c3ccncc32)cc2cc(Cl)ccc21`, “LS mean viral load change” read -3.86 log10 copies/mL (respiratory syncytial virus; RT-qPCR; hospitalized infants 1-24 months, nasal swab; oral, 1-9 mg/kg daily, day 6, all doses combined; relative to: baseline).
For `COc1cccc(C(=O)NN(C(=O)c2cc(C)cc(C)c2)C(C)(C)C)c1C`, adult lifespan read “decreased” (Anopheles coluzzii; pyrethroid-resistant; topical, 0.4 %; relative to: control).
`Oc1cccc(NCC(F)(F)C(F)(F)C(F)(F)C(F)(F)C(F)(F)C(F)(F)F)c1` gave a viability reduction of 13.8% (Schistosoma mansoni; microscopic viability scoring; newly transformed schistosomula; 10 µM, 72 h, prescreen).
`Nc1ncnc2c([C@@H]3N[C@H](CO)[C@@H](O)[C@H]3O)c[nH]c12` has an inhibition of 71.9% (Rhinovirus A; viral replication; HRV2 HGP; 9.5 µM).
The viability reduction of `C[Si](C)(C)C#Cc1ccc(C#C[Si](C)(C)C)cc1` is reported as 17.9% (Schistosoma mansoni; microscopic viability scoring; newly transformed schistosomula; 10 µM, 72 h, prescreen).
With `Nc1ncnc2c1nnn2[C@@H]1C(F)=C(CO)[C@@H](O)[C@H]1O` the selectivity index was over 2.67 (Dengue virus; BHK-D2-Rluc; relative to: CC50 over EC50).
The IC50 of `COc1ccc(C[C@H](NC(=O)[C@H](C)NC(=O)CN2CCOCC2)C(=O)N[C@@H](Cc2ccccc2)C(=O)C2(C)CO2)cc1` (stereo in doubt) is reported as under 0.05 µM (Plasmodium falciparum; parasite growth; various incl. drug-resistant strains).
The fold enrichment of `Nc1ncnc2c1ncn2[C@@H]1O[C@@H]2COP(=O)(O)O[C@H]3[C@@H](O)[C@H](n4cnc5c(=O)[nH]cnc54)O[C@@H]3COP(=O)(O)O[C@H]2[C@H]1O` is reported as 2.66 (West Nile virus; RNA sequencing, refers to: peptide ligand-binding receptors R-HSA-375276; HFF-1 cells; concentration not given, upregulated pathway; relative to: WNV-infected untreated cells).
`CCCCCc1cc(OC)c2c(c1)OC(C)(C)CC2=O` gave a viability reduction of 0% (Schistosoma mansoni; microscopic viability scoring; newly transformed schistosomula; 10 µM, 72 h, prescreen).
For `CC[C@@H]1/C=C(\C)C[C@H](C)C[C@H](OC)[C@H]2O[C@@](O)(C(=O)C(=O)N3CCCC[C@H]3C(=O)O[C@H](/C(C)=C/[C@@H]3CC[C@@H](O)[C@H](OC)C3)[C@H](C)[C@@H](O)CC1=O)[C@H](C)C[C@@H]2OC`, the IC50 was 0.33 µM (Bovine alphaherpesvirus 1; viral replication; MDBK).
With `CC(C)C[C@H](NC(=O)[C@H](CCN)NC(=O)[C@H](CCN)NC(=O)[C@@H](Cc1ccccc1)NC(=O)[C@H](CC(C)C)NC(=O)[C@H](CCN)NC(=O)[C@H](CCN)NC(=O)[C@H](N)CCN)C(N)=O` the MBC was over 128 µM (Acinetobacter calcoaceticus; BHI agar spot plating; 24 h, 37 °C).
`COc1ccc(C(c2nnnn2C(C)(C)C)N2CCc3ccccc3C2)cc1OC` (stereo not shown) gave a viability reduction of 0% (Schistosoma mansoni; microscopic viability scoring; newly transformed schistosomula; 10 µM, 72 h, prescreen).
For `C[C@@H](O[C@H]1OCCN(Cc2n[nH]c(=O)[nH]2)[C@H]1c1ccc(F)cc1)c1cc(C(F)(F)F)cc(C(F)(F)F)c1`, the IC50 was 19.9 µM (Human immunodeficiency virus 1; viral replication; PBMC, subtype F isolate from Brazil, R5, NSI).
With `COC(=O)N[C@H](C(=O)N1CCC[C@H]1c1ncc(-c2ccc(-c3ccc(-c4cnc([C@@H]5CCCN5C(=O)[C@@H](NC(=O)OC)C(C)C)[nH]4)cc3)cc2)[nH]1)C(C)C` the combination index was 1.1 (Hepatitis C virus; replicon cells, genotype 1a; 75% effect level, added: NS3 inhibitor, ratio 2.5:1).
With `O=C1NC2CCCCC2N=C1c1ccccc1` (stereo not shown) the viability reduction was 14.3% (Schistosoma mansoni; microscopic viability scoring; newly transformed schistosomula; 10 µM, 72 h, prescreen).
With `CC[C@H](C)[C@H](NC(=O)[C@H](C)NC(=O)[C@H](CCCCN)NC(=O)[C@H](CC(C)C)NC(=O)[C@H](C)NC(=O)[C@@H](NC(=O)[C@H](Cc1c[nH]cn1)NC(=O)[C@H](CC(C)C)NC(=O)[C@@H](NC(=O)[C@@H](NC(=O)[C@H](CCCCN)NC(=O)[C@H](C)NC(=O)[C@H](C)NC(=O)[C@H](CO)NC(=O)[C@H](CCCCN)NC(=O)[C@H](Cc1ccccc1)NC(=O)[C@@H](NC(=O)[C@H](CCCCN)NC(=O)[C@H](CC(C)C)NC(=O)[C@H](Cc1ccccc1)NC(=O)[C@H](CO)NC(=O)[C@H](CCCCN)NC(=O)[C@H](Cc1c[nH]c2ccccc12)NC(=O)[C@H](CCCCN)NC(C)=O)[C@@H](C)O)[C@@H](C)O)C(C)C)[C@@H](C)O)C(=O)N[C@@H](CO)C(=O)N[C@@H](CO)C(N)=O` the MIC90 was 4 µg/mL (≈ 1.36 µM) (Pseudomonas aeruginosa; ATCC 27853).
The MIC of `N=C(N)NCCC[C@H](NC(=O)CN)C(=O)N[C@@H](Cc1c[nH]c2ccccc12)C(=O)N[C@@H](CCCNC(=N)N)C(=O)N[C@@H](Cc1c[nH]c2ccccc12)C(=O)N[C@@H](Cc1c[nH]c2ccccc12)C(=O)N[C@@H](Cc1c[nH]c2ccccc12)C(=O)N[C@@H](CCCNC(=N)N)C(=O)N[C@@H](Cc1c[nH]c2ccccc12)C(=O)N[C@@H](CCCNC(=N)N)C(=O)N[C@@H](Cc1c[nH]c2ccccc12)C(N)=O` is reported as 4 µM (Candida albicans; broth microdilution; 14936, RPMI 1640-MOPS; 48 h, 30 °C).
`CN[C@H](CC(C)C)C(=O)N[C@H]1C(=O)N[C@@H](CC(N)=O)C(=O)N[C@H]2C(=O)N[C@H]3C(=O)N[C@H](C(=O)N[C@H](C(=O)O)c4cc(O)cc(O)c4-c4cc3ccc4O)[C@H](O)c3ccc(c(Cl)c3)Oc3cc2cc(c3O[C@@H]2O[C@H](CO)[C@@H](O)[C@H](O)[C@H]2O[C@H]2C[C@](C)(N)[C@H](O)[C@H](C)O2)Oc2ccc(cc2Cl)[C@H]1O` gave an MBC of 2 µg/mL (Staphylococcus aureus; CAAS-2019-CAAS-2019-14 clinical blaZ-resistant isolate, PBS).
For `Cc1c2c(nn1C)CSCc1cc(n(C)n1)CSc1cc(c3ccccc3c1)OCCCc1c(C(=O)O)n(C)c3c-2c(Cl)ccc13`, “log2 fold change” read 4.45 (Staphylococcus aureus; label-free quantitative proteomics, refers to: SAOUHSC_00435 protein; SA113; concentration not given; relative to: untreated control).
With `CC(C)[C@H](NC(=O)[C@H](CCCNC(=N)N)NC(=O)[C@H](Cc1c[nH]c2ccccc12)NC(=O)[C@H](CCCNC(=N)N)NC(=O)[C@H](Cc1c[nH]c2ccccc12)NC(=O)[C@H](Cc1c[nH]c2ccccc12)NC(=O)[C@H](Cc1c[nH]c2ccccc12)NC(=O)[C@H](CCCNC(=N)N)NC(=O)[C@H](Cc1c[nH]c2ccccc12)NC(=O)[C@H](CCCNC(=N)N)NC(=O)CN)C(N)=O` the MIC was 8 µM (Candida albicans; broth microdilution; 17546, RPMI 1640-MOPS; 48 h, 30 °C).
The MLC of `CNC(C)C1CCC(N)C(OC2C(N)CC(N)C(OC3OCC(C)(O)C(NC)C3O)C2O)O1` (stereo not shown) is reported as 4 ± 1 µg/mL (≈ 8.38 µM) (Proteus mirabilis; broth microdilution).
`O=c1oc2ccc(-c3ccccc3)cc2nc1-c1ccc(O)cc1` has a viability reduction of 12.5% (Schistosoma mansoni; microscopic viability scoring; newly transformed schistosomula; 10 µM, 72 h, prescreen).
The EC50 of `O=c1ccn([C@@H]2O[C@H](CO)[C@@H](O)[C@H]2O)c(=S)[nH]1` is reported as 1.8 µM (Dengue virus; viral replication; BHK-21, DENV4).
`COc1ccccc1Cc1cc2c(ccc3ccccc32)oc1=O` gave a viability reduction of 25% (Schistosoma mansoni; microscopic viability scoring; newly transformed schistosomula; 10 µM, 72 h, prescreen).
`C[N+]1=C2C=C(N)C(=O)c3[nH]cc(c32)CC1` gave an inhibition of 1.6% (Saccharomyces cerevisiae; cell growth, liquid culture; BY4741; 100 µM, 24 h).

Excerpt of the above:
For `O=[N+]([O-])c1ccc(C2=[N+]([O-])c3ccccc3N3CCN=C23)cc1`, the MIC90 was at most 0.06 µg/mL (Fusobacterium nucleatum).
`O=[N+]([O-])c1ccc(NCCSSc2ccccn2)c2nonc12` has a viability reduction of 17.3% (Schistosoma mansoni; microscopic viability scoring; newly transformed schistosomula; 10 µM, 72 h, prescreen).
With `NC(=O)c1ncn([C@@H]2O[C@H](CO)[C@@H](O)[C@H]2O)n1` the EC50 was 61 µM (Dengue virus; viral replication; BHK-21, DENV3; 120 h).
`Cn1c(=O)ccc2ccc(F)c(CCNC[C@H]3CN(c4cnc5c(n4)NC(=O)CO5)C(=O)O3)c21` has an MIC50 of 0.06 µg/mL (≈ 0.128 µM) (Achromobacter spp.).
For `CS(=O)(=O)CCCn1c(Cn2c(=O)n(CC(F)(F)F)c3ccncc32)cc2cc(Cl)ccc21`, “LS mean viral load change” read -3.86 log10 copies/mL (respiratory syncytial virus; RT-qPCR; hospitalized infants 1-24 months, nasal swab; oral, 1-9 mg/kg daily, day 6, all doses combined; relative to: baseline).
